Measured values pooled from the literature.
Compare with care: the assays were run in different laboratories.
FLT3 N841I: Receptor-type tyrosine-protein kinase FLT3 (FLT3, Homo sapiens, UniProt P36888, N841I)
FLT3 R834Q: Receptor-type tyrosine-protein kinase FLT3 (FLT3, Homo sapiens, UniProt P36888, R834Q)
FLT3 D835H: Receptor-type tyrosine-protein kinase FLT3 (FLT3, Homo sapiens, UniProt P36888, D835H)
FLT3 autoinhibited: Receptor-type tyrosine-protein kinase FLT3, autoinhibited (FLT3, Homo sapiens, UniProt P36888)

With `CC(C)=CC1OC(C)(C)C2C=C3C(=O)C(Cl)=CC(O)C3C3C(O)C4OC4C(=O)C132` (stereo not shown) the remaining binding was 93% (FLT3 N841I; cell-free assay, competition with immobilised ligand; 10 µM).
`C=CC(=O)N1CCCC(n2c(=O)c3ncccc3n(Cc3ccc(Oc4ccccc4)cc3)c2=O)C1` (stereo not shown) has a remaining binding of 100% (FLT3 (Homo sapiens, UniProt P36888, K663Q); cell-free assay, competition with immobilised ligand; 1 µM).
`Cc1ccc(-c2c(/C=C(\C#N)C(=O)NC(C)C)n(CCCO)c3ncnc(N)c23)cc1` gave a remaining binding of 96% (FLT3 R834Q; cell-free assay, competition with immobilised ligand; 1 µM).
For `CNC1C[S+]2CC[S+]3CC[S+](C1)[Ru-4]321([N]=C=S)[n]2c3ccc(OC)cc3c3c4c(c5cc(F)c[n+]1c5c32)C(=O)NC4=O` (stereo not shown), the remaining binding was 23% (FLT3 N841I; KinomeScan; 0.1 µM; relative to: untreated).
`C=CC(=O)N1CCc2ccc(-n3c(=O)ccc4cnc5ccc(-c6cnn(C)c6)cc5c43)cc21` gave a remaining binding of 100% (FLT3 D835H; KINOMEscan; 1 µM; relative to: DMSO control).
The remaining binding of `Nc1ncc2c(n1)-c1c([nH]c3ccc(C4=CCOCC4)cc13)CCC2` is reported as 100% (FLT3 autoinhibited; binding, competition with immobilised ligand; 1 µM).
`CNC(=O)C1CCN(c2cc(C)c(F)cc2NC(=O)c2ccc(-c3cc(O)ccc3C)c(C)c2)CC1` has a remaining binding of 88% (FLT3 R834Q; binding, competition with immobilised ligand; 1 µM).
With `Cc1cnc2nc1Nc1cccc(c1)COC/C=C/COCc1cc(ccc1OCCN1CCOCC1)N2` the remaining binding was 64% (FLT3 autoinhibited; binding; 0.1 µM).
With `COc1c(Cl)cccc1Nc1c(-c2ccncc2C#C[C@@]2(C)CCCN2C(=O)/C=C/CN(C)C)[nH]c2c1C(=O)NCC2` the remaining binding was 52% (FLT3 (Homo sapiens, UniProt P36888, D835V); binding, competition with immobilised ligand; 3 µM).
`CCN1CCN(Cc2ccc(C(=O)Nc3ccc(C)c(NCc4cnc5[nH]ccc5c4OC)c3)cc2C(F)(F)F)CC1` has a remaining binding of 3.8% (FLT3 D835H; binding, competition with immobilised ligand; 1 µM).
